Results of several laboratories.
Lines come from different studies, so protocols differ. “And” joins repeats or separate records; there may be more than shown. ± gives the spread as reported.
UniProt P51575, sequence (whole entry, looked up): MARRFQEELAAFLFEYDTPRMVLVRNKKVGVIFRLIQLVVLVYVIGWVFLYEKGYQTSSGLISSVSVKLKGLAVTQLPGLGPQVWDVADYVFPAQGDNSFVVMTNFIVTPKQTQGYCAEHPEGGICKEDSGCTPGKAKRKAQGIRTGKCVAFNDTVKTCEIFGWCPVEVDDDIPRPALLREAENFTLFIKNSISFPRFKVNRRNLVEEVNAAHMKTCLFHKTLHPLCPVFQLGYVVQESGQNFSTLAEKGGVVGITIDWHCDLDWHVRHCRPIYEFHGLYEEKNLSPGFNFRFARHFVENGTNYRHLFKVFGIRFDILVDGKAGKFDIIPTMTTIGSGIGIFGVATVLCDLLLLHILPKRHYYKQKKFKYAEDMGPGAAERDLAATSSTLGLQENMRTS
UniProt P02749, sequence (whole entry, unmodified, looked up): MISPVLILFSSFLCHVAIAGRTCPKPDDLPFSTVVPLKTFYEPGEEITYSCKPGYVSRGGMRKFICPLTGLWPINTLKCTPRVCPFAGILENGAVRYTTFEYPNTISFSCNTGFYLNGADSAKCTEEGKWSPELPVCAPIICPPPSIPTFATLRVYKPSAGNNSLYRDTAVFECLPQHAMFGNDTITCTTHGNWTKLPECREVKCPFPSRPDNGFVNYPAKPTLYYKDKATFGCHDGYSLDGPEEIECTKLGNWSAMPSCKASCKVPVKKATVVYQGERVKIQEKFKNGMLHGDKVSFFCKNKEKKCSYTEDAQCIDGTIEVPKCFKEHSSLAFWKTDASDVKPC
UniProt P00519, sequence (whole entry, unmodified, looked up): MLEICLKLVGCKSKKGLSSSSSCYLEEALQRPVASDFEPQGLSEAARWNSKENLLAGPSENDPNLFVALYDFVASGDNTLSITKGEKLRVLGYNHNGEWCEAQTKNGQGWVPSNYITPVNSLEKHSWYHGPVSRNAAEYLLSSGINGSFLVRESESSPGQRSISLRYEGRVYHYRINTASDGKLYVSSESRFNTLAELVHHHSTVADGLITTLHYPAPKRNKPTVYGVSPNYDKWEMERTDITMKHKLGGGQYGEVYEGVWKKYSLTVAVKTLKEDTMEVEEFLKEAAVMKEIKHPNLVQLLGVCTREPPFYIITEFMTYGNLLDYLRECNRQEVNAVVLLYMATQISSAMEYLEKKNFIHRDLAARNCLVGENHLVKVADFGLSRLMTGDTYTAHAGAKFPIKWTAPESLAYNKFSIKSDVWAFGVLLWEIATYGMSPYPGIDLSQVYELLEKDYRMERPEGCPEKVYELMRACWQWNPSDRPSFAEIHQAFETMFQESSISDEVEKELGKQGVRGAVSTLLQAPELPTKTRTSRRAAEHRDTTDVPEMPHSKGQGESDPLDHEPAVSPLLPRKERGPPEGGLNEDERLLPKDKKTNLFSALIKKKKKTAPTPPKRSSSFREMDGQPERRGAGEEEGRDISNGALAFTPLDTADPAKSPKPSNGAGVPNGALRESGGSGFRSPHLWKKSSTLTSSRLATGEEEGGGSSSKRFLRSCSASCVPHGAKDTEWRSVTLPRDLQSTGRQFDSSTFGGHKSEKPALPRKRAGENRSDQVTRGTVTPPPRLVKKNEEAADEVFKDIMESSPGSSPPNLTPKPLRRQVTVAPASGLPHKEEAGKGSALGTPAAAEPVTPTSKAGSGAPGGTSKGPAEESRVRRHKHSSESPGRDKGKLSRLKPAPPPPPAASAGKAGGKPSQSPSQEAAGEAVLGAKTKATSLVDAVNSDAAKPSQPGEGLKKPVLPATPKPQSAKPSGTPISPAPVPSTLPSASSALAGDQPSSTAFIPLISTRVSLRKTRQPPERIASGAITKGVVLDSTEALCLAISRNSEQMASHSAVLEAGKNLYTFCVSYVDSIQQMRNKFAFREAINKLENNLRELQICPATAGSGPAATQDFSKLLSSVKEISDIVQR
UniProt P25090, sequence (whole entry, looked up): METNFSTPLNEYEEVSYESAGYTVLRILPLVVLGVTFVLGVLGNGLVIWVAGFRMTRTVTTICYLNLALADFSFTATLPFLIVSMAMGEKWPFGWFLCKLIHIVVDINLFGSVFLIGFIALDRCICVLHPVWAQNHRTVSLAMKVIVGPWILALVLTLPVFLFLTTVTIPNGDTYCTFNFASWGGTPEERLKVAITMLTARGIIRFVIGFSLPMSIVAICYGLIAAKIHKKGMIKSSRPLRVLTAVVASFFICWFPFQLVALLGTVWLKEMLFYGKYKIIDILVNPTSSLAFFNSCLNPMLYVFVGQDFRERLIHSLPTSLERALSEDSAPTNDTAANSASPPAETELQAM
UniProt Q01105, sequence (whole entry, unmodified, looked up): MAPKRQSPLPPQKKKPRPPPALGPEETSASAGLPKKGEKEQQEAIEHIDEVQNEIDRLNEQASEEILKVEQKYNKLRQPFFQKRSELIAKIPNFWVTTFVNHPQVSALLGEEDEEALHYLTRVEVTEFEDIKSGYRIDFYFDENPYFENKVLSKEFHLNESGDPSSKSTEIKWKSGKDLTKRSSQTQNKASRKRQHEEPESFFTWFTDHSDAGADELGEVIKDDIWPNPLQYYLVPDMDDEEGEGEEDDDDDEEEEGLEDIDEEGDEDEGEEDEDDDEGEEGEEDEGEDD
UniProt P0AC13, sequence (whole entry, looked up): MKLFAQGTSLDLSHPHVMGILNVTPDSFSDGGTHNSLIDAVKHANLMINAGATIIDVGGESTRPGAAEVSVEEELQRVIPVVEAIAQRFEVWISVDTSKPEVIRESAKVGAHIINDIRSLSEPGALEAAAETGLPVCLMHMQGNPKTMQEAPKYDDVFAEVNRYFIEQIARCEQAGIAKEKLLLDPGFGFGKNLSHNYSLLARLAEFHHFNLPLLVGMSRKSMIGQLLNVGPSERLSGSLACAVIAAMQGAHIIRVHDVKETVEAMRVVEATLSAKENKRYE
UniProt P25963, sequence (whole entry, unmodified, looked up): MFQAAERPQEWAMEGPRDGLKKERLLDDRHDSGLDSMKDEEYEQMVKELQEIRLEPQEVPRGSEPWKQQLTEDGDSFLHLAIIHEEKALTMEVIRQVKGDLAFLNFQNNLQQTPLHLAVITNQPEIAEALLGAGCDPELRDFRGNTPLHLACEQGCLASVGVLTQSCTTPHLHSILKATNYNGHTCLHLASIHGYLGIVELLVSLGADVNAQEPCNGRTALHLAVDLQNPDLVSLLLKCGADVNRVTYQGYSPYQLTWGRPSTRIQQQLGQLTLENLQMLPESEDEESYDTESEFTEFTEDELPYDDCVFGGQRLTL
UniProt Q13258, sequence (whole entry, unmodified, looked up): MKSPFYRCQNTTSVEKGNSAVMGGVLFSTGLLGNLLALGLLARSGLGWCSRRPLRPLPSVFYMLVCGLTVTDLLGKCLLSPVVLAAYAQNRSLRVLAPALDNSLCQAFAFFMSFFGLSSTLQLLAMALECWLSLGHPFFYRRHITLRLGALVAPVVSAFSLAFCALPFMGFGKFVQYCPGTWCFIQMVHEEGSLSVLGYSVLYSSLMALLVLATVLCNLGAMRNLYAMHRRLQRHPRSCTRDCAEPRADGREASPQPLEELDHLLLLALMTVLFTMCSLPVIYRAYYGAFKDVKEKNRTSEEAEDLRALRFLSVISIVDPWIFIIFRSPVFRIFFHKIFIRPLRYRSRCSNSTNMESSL
UniProt P23979, sequence (whole entry, looked up): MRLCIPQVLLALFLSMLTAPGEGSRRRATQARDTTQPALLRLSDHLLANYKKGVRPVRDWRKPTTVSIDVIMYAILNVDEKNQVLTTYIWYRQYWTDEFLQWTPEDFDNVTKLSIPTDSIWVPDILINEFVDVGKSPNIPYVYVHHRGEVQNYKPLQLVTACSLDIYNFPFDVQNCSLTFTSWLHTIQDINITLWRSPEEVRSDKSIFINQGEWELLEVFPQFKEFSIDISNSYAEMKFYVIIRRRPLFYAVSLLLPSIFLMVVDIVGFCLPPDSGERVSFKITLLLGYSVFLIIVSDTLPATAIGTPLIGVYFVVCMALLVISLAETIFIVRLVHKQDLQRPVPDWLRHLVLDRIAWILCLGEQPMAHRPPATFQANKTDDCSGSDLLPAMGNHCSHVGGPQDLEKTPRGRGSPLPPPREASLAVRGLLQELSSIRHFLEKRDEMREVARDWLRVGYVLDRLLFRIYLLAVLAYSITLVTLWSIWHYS
UniProt P49773, sequence (whole entry, looked up): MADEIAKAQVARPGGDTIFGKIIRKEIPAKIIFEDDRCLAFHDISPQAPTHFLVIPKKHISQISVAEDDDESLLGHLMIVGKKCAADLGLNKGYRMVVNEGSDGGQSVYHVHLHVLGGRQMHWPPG
UniProt O75716, sequence (whole entry, looked up): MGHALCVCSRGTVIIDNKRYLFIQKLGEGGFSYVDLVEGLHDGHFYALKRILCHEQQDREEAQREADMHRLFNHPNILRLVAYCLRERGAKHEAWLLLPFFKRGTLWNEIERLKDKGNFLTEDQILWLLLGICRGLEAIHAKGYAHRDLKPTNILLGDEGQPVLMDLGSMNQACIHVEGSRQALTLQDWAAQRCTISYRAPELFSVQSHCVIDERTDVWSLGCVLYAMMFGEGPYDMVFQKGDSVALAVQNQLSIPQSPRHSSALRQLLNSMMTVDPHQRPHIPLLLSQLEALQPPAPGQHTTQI

Compound	target	assay	system	conditions	scale	quantity	value
CO[C@H]1O[C@H](COS(=O)(=O)O)[C@@H](O[C@@H]2O[C@@H](C(=O)O)[C@@H](O[C@H]3O[C@H](COS(=O)(=O)O)[C@@H](O[C@@H]4O[C@H](C(=O)O)[C@@H](O[C@H]5O[C@H](COS(=O)(=O)O)[C@@H](O)[C@H](O)[C@H]5NS(=O)(=O)O)[C@H](O)[C@H]4O)[C@H](OS(=O)(=O)O)[C@H]3NS(=O)(=O)O)[C@H](O)[C@H]2OS(=O)(=O)O)[C@H](O)[C@H]1NS(=O)(=O)O	Beta-2-glycoprotein 1, domain V (APOH, Homo sapiens, UniProt P02749, V266L)	isothermal titration calorimetry		together with: 50 mM NaCl	reference: total free energy	salt-independent binding energy share	52%
Clc1ccc2[nH]ccc2c1	Htr3a (Mus musculus, UniProt P23979)	positive allosteric modulator, two-electrode voltage clamp	Xenopus oocytes	100 µM, pH 7.4, holding -60 mV, together with: 5-HT 1 µM	reference: 5-HT 1 µM alone	peak current	211 ± 55.4%
Nc1ncnc2c1ncn2[C@@H]1O[C@H](COP(=O)(O)CP(=O)(O)OP(=O)(O)O)[C@@H](O)[C@H]1O	P2X purinoceptor 1 (P2RX1, Homo sapiens, UniProt P51575)	calcium influx		316 nM	reference: ionomycin response	calcium influx	98.4% and 100% and 86.6% and 94.2%
CC(=O)OCc1nn(C)c2nc(N)[nH]c(=O)c2c1=O	folP (Bacteria, UniProt P0AC13)	CETSA HiBiT	whole cells			melting temperature	66 °C
CC[C@H](C)[C@H](NC(=O)[C@H](CCCNC(=N)N)NC(=O)[C@H](Cc1c[nH]cn1)NC(=O)[C@H](CCCNC(=N)N)NC(=O)[C@H](CC(=O)O)NC(=O)[C@H](CC(=O)O)NC(=O)[C@@H](NC(=O)[C@H](CC(=O)O)NC(=O)[C@@H]1CCCN1C(=O)[C@@H](N)CC(C)C)[C@@H](C)O)C(=O)N[C@@H](CCC(=O)O)C(=O)N[C@@H](CCC(=O)O)C(=O)N[C@@H](CCCCN)C(=O)N[C@@H](CCCNC(=N)N)C(=O)N[C@@H](CCCCN)C(=O)N[C@@H](CCCNC(=N)N)C(=O)N[C@H](C(=O)N[C@@H](Cc1ccc(O)cc1)C(=O)N[C@@H](CCC(=O)O)C(=O)N[C@H](C(=O)N[C@@H](Cc1ccccc1)C(=O)N[C@@H](CCCCN)C(=O)N[C@@H](CO)C(=O)N[C@H](C(=O)N[C@@H](CCSC)C(=O)N[C@@H](CCCCN)C(=O)N[C@@H](CCCCN)C(=O)N[C@@H](CO)C(=O)N1CCC[C@H]1C(=O)N[C@@H](C)C(=O)N[C@@H](CC(N)=O)C(=O)NCC(=O)N1CCC[C@H]1C(=O)O)[C@@H](C)CC)[C@@H](C)O)[C@@H](C)O	NF-kappa-B inhibitor alpha (Homo sapiens, UniProt P25963)	binding, ITC		pH 7.5, 293 K, 50 mM NaCl		-TΔS	-5 ± 0.2 kcal/mol
O=C(COP(=O)(O)O)[C@@H](O)[C@H](O)[C@H](O)COP(=O)(O)O	HINT1 (Homo sapiens, UniProt P49773)	thermal proteome profiling	HepG2 cell lysate	concentration not given, 57 over 37 °C, mean	reference: compound over control	thermal stability ratio	0.723
CC1CCCN1c1nccc(-c2cnn3ncccc23)n1 (stereo not drawn)	ABL1 (Homo sapiens, UniProt P00519, F317L)	KINOMEscan		1 µM		remaining binding	100%
O=C1C[C@@H](c2ccccc2)Oc2cc(O)cc(O)c21	Aryl hydrocarbon receptor (Danio rerio, UniProt Q9YGV3)	reporter gene, agonist, luciferase reporter	ZF-4	30000 µM	reference: vehicle control	fold change	0.594
COc1cc(C(=O)NS(=O)(=O)c2ccccc2C)ccc1Cc1cn(C)c2ccc(NC(=O)OC3CCCC3)cc12	Volume-regulated anion channel subunit LRRC8C, part LRRC8A IL1 chimera (LRRC8C, Homo sapiens, UniProt Q8TDW0, Y126F)	ion current, inhibitor, whole-cell patch clamp	HCT LRRC8-/- cells	10 µM, +100 mV		inhibition	93.8% and 97.2% and 81% and 96.2% and 87.4%
N#Cc1ccc(C[C@@H](NC(=O)c2cc3ccccc3[nH]2)C(=O)N2CCc3ccccc32)cc1	FPR2 (Homo sapiens, UniProt P25090)	cell-based		concentration not given		activity	inactive
COc1cc(Nc2ncc3c(n2)-c2ccc(Cl)cc2C(c2c(F)cccc2OC)=NC3)ccc1C(=O)O	JAK2 JH1 JH2	inhibitor, biochemical kinase		1 µM		remaining activity	107%
O=c1nc(SCc2cc(F)cc(C(F)(F)F)c2)nc(SCc2csc3ccc(Cl)cc23)[nH]1	TOP2A (Homo sapiens, UniProt P11388)	DNA relaxation		15.6 µM, replicate 2		relaxed DNA	5.3%
CCCCCCCCCCCCC/C=C/[C@@H](O)[C@H](CO)NC(=O)CCCCCCCCCCCCCCCCCCC	Protein SET (SET, Homo sapiens, UniProt Q01105, Y135C)	lipid binding, GFP pull-down LC-MS/MS	A549 overexpressing GFP-tagged protein	unit not given	reference: vector-transfected cells	bound endogenous lipid	30.3
CCCCC[C@H](O)/C=C/[C@H]1C(=O)C[C@H](O)[C@@H]1C/C=C\CCCC(=O)O	PTGDR (Homo sapiens, UniProt Q13258, D72N)	agonist		0.01953 µM		activation	64.3%
CC[C@@H]1[C@H](F)C(=O)N[C@@H]1COc1nccc2cc(C(N)=O)c(OC)cc12	STK16 (Homo sapiens, UniProt O75716)	ATP-site probe binding, ActivX profiling	THP-1 cell lysate	0.2 mM, Lys2 site		inhibition	35.1%

Some of these lines once more:
Compound	target	assay	system	conditions	scale	quantity	value
CC(=O)OCc1nn(C)c2nc(N)[nH]c(=O)c2c1=O	folP (Bacteria, UniProt P0AC13)	CETSA HiBiT	whole cells			melting temperature	66 °C
